Measurements pooled from the literature.
Numbered parts are unrelated; each lists some results of a single study. Substitutions count along the parent as printed.

Sample 1 — technique: RNA Bind-n-Seq; molecule type: RNA; medium: in vitro; concentration: 365 nM; baseline: no-protein control; reading: higher = stronger binding
Target: RNA binding protein fox-1 homolog 2, RRM domain, GST-SBP tag (RBFOX2, Homo sapiens, UniProt O43251-10, residues 100-194)
Setting: natural RNA segment, single round, ends assumed
All sequences stand within: GGGAGUUCUACAGUCCGACGAUC … UGGAAUUCUCGGGUGCCAA
Residues (chain): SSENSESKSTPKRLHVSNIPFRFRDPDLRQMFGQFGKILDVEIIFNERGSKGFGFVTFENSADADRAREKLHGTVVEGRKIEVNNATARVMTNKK
Strand	RBNS enrichment (R)
CUGGCUGGUGGUUUAACAGGUGUCACUCUGCAAACCUGAACGGUGUUUACUACCGUGGUUCCUACAGGGCAGAAACGGAUAAUGGUGUUGUGUGGUACACCUGGCAUGGG	7.37
AGGACAGCCACCCAGGUCUGCAGCCCCACAAGGCCCUGCUCCUGAUCAGCCUCAGCCAGAGGACGAGGAGGCAGGUGACUGUCAUCAGCCUCGACUGCCACAGAGAAGCA	3.94
CUACUGCUUCUGCUUCUUCUUCUCUGGACUGGUGGUAUAGAUAUAGCCACCCUUUGCCCAAACCCUGGUAGCUCGGGGAAGCUUGGCUUAAGGCUGCACGCCUCCAAUCC	0.284
CUCGGACUUGUCGCCCCUUCCCAGCCCCCUCAGCGUGAUCCUCAGGGUCCUUGGUCUCUUCAGGCCCUGAGCGGGGUCAGGCACUGGGACGCCUUCCCCGCCCUCGAGGC	0.488
GAUUUUCAGUAACUGAAUUUGUGCACAAAACAUUCUAAACACUAGUGAAGCCUGUUUCGUUGAACUAAUUCUGGCUCUGGAAAUGUUUUUGUUUUAUAGUUAUUUACGAU	0.52
AUUUAACUGUCAAACAGAGGAAUCUGUGUUUGUUACAAUAAUAUAACAGAUGCCUUGAAGGACCCGCGUCAGGCUUCUGGAGUUGUGAAGGAGGGUGGGAUCUCCUACUC	0.532
CUUUUUACUUUUUUCCCCUAACUUUAGCAAUGUAGUAUCUUGAGCCAUUAAUUUUUGGGUUUUUUUAAAAUCCAGAAGGUAUAUAGAAACCUUUUCAGAUUUUUCAUCUG	0.631
UAACAUUGUGACUCUUACUCGUUUUUGUUGGUUAGCAGAGGUUCCUUUAUAGAGAAAGCCUUCCCUCAGCUCUUUUGUUACCUUGAGAUUUGCCAGUUUGGUGAAUACAG	0.54
UUGCUCCGCCUCUGCUGGCACAUUUCCCCAGACCUGAGCUCCCCACCACCCCAGCUGCUCCCCUCCCUCCUCUGUCCCUAGGUCAGCUUGCUGCCCUAGGCUCCGUCAGU	0.274
CAGCAUGCAGAACAAAAACUUUAAACUUUCUCUCUCACUAUACAGUAUAUUGUCAUGUGAAAGUGUGGAAUGGAAGAAAUGUCGAUCCUGUUGUAACUGAUUGUGAACAC	0.718
UUUAAUUUUGUCCAUCCUAGAGAUAAUAACGAAAGAGAAAUGUCUGCAUGUGUGCACACACACACAUCUUAGAUACACAAAAAGAAAUGUUCAGAUUCCUUUGAGAAUUU	0.522
UUUCUUCUUUGUAUCUCCCUCCUUCCCAGCCCACCCGGGCAGCAGACUCUGAUGGAAGGAAGGUGCCGUAGGUGGGCUUUUAGAAACUAACGGGACUGGUUUUCAAAGCA	1.81

Sample 2 — target: CCND2, cyclin fold, Cln2 fusion (human); technique: yeast growth competition, sequencing; medium: yeast; setting: weak parent motif; baseline: not given; reading: higher = stronger binding
Parent: RBL1 docking peptide (human); GSAKRRLFGEDPP; partner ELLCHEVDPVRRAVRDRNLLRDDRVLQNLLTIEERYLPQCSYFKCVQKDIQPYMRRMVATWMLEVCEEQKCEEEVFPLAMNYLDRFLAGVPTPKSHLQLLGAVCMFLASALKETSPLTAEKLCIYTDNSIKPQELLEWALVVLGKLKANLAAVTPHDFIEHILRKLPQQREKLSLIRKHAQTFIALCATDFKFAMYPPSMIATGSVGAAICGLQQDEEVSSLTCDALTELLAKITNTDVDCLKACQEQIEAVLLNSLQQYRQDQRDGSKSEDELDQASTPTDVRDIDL
Change	normalised enrichment score
G9C	0.632
K4M	0.385
E10T	0.0607
R6A	0.144
D11A	0.295
D11C	0.592
F8M	0.37
K4H	-0.0146
P12N	0.0331
E10N	0.187
F8G	0.173
R5Y	0.503
P13T	0.148
G1Q	-0.0186
E10M	0.114
P12L	0.387
G9D	0.703

Sample 3 — technique: competition protein-binding microarray; molecule type: double-stranded DNA, one strand shown; medium: in vitro; concentration: 2 µM; together with: Cbf1 competitor, 0.05 µM; reading: higher = stronger binding; all sequences stand within: … GTCTTGATTCGCTTGACGCTGCTG
Target: Phosphate system positive regulatory protein PHO4, full length, GST-tagged (PHO4, Saccharomyces cerevisiae, UniProt P07270, residues 1-312)
Chain of UniProt P07270 (whole entry, looked up): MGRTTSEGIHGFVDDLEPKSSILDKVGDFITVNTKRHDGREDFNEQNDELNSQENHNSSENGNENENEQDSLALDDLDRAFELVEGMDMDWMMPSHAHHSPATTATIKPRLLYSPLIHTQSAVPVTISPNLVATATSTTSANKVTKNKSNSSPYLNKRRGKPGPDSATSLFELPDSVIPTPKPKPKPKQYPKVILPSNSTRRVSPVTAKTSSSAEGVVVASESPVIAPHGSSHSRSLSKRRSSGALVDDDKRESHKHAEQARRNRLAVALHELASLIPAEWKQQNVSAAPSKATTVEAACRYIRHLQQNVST
Setting: whole 60-bp probe, lowest competitor level
Strand	fluorescence intensity
TGCGCAACAACTTGTCACGAAACTTTATGTCTAGAA	3780 a.u.
TCAGTTCAAGCAGGGAACGTGCCAGACATGGCTAGT	13700 a.u.
CTAGCCCATAAAATGGTCGTGCGGATTAACGAGCAA	6450 a.u.
TGCGCAACAACTTGCGAGGTGGGTGTATGTCTAGAA	5050 a.u.
CGCTGCAGCCGCTGCCACGCGTTCCCCGCCCGAGCC	8170 a.u.
CTTCTGTAAATTTGGCATGTGGGTGGACGCGCCCCG	10600 a.u.
CATACCCAACCTTGTCACGACACTTAAGATATTTGT	5240 a.u.
CATACCCAACCTTGTGATGTGGGTGAAGATATTTGT	5290 a.u.
CGGGGTTAAGTTTGTCACGCAACTTGCTTGCAGCAG	5210 a.u.
TACCCTTGCACCTTCCACAACCATATTTTTGGTCTA	4370 a.u.
GCTGACCCTATAACGCGCGTGAAGTAACAGCGATCT	5040 a.u.
CGTCCTAGCGATTGAATCGTGGGTGCCATGAGGAAG	8560 a.u.
ATTGAAAGCGCCCGGATCGTGCCAGTATTTACCACC	9270 a.u.
GACTCTGAAAAGGGTACCGTGACTCGGAAAGAAGTT	3760 a.u.

Sample 4 — technique: RNA Bind-n-Seq; molecule type: RNA; medium: in vitro; concentration: not given; baseline: input RNA pool; reading: higher = stronger binding
Target: RING finger protein unkempt homolog, zinc fingers 1-6, GST-SBP tag (UNK, Homo sapiens, UniProt Q9C0B0, residues 30-357)
Setting: RNA with constant flanks, human and mouse sites, ends assumed
All sequences stand within: GGGAGUUCUACAGUCCGACGAUC … CAACAGAGGAUUGAGCAUCA
Construct (chain): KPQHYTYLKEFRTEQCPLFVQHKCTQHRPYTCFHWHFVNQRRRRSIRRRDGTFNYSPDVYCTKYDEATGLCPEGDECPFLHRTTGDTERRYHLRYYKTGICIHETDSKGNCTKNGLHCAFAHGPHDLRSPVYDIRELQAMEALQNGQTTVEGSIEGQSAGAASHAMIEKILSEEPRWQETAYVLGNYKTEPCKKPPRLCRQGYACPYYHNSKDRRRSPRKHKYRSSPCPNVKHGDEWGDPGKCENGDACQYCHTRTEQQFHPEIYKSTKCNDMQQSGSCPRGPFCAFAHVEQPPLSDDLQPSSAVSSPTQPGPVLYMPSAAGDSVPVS
Strand	bound/input enrichment [ratio]
AAAGAAAACCUGGAGACUUCUCCUUUCAUAACUCCCGGAAAGCCUUGGGAAGAGGCCCGUAGUUUUAUUAUGAAUGAGGAUUUCUACCAGUGGCUGGAGGAAUCUGUAUACAUGGAUAUU	2.06
CCUGCUCCCAAAUCAUGGGCCAGUAACAAGCAAGGUGGGCAAGGAGAUGGAAUCCAAGUGAAUAGUCAGUUUCAGCAAGAAUUUCCCAGCCUGCAGGCAGCUGGGGAUCAGGAAAAAAAA	0.323
CCUGCUCAGAUCACCAUGAAAGUAAUCCAAGGCUUGUACAGUGGGGUCACCACAGUGGAACUAGAUACUUUGGCUGCUGAAACAGCUGCAACCUUGACUACUAAGCACCCUGACUAUGCU	0.202
AAGAGGAAAUACUCAGAGGUUGAUGAUAGCUUGCCUUCAGGAGGAGAAAAACCAUCAAAGAAUGAAACCGGCUUAUUGUCUUCAAUUAAAAAGUUCAUUAAAGGAAGCACACCCAAGGAA	0.207
CCAUCAGCCCACCCUAUCCCAUUUUGUCCCAUUCCCGUCUACCCCAGGGCCUACCUUCCCACCUCGCUGCUUCCUCCAGGAAUCAUUGGUGGUGAAUAUGAUGAGAGGCCGAUACUGCCU	0.272
UACGGGACCCUGGACACUCACCUGGUGUACUCAGAAGAGUCCCCUCUGAGCUGAGACCGUGCUAGGCUGCUGUGCAGUUUGGCGCAGUGACAGACCCGGCUUUUGUUUCUGGGCUUCCAG	0.0417
UGGUAUACAGACCAGUUUUAGGACUGGUAAUCCAACAGGGACUUACCAGAAUGGUUAUGAUAGCACUCAGCAAUACGGAAGUAAUGUUCCAAAUAUGCACAAUGGUAUGAACCAACAGGC	0.141
CGUGGUGUUUCCUUUACUUUUGGAGCUGAUGUAGUCAGUAAAUUUCUGAAUCGUCAUGAUUUAGAUUUGAUUUGUCGAGCUCAUCAGGUGGUGGAAGAUGGAUAUGAAUUUUUUGCUAAA	0.193
UGCUUUUCUUUCUAAGCAGAGUAUGGUUGUCAUCUUUCUGGACAGAUGAAUUGAUAGGAGAUAGAAGGUCGAAAGAUGGCUGUUAUACCAGCCUAAGUUCAGAACACCAGCAUAUCAAGG	0.298
CUUGACUUUCUACGAAUUAGUGACACAGAAAAGCUUCCAGAAUUUAAGAGCUUUGAAGAACUAGAAUUUCCUAAGCAUUCAAAAGUCAAACGGCAGAGCAGUACCGCAGAUGCUCCUGAG	0.549
CCAUGGACAACAAGCCUUGGGUAACCGGACCAGGCCAAGGGUCUACAAUUCUCCAACGAAUAGCUCCUCUACCCAAGAUUCUAUGGAGGUUGGCCACAGUCACCACUCCAUGACAUCCCU	0.0554

A few entries again (sample 2):
Change	normalised enrichment score
P12N	0.0331
D11C	0.592
E10T	0.0607
F8G	0.173
E10N	0.187
K4H	-0.0146
R5Y	0.503
R6A	0.144
